# Assay results from different studies.
# Parts stem from different laboratories: compare values within a part only.

# Set 1 — technique: universal PBM; molecule type: double-stranded DNA, one strand shown; sample: in vitro; concentration: 600 nM; direction: higher = stronger binding
# Target: Sal-like protein 4, full length isoform A (SALL4, Homo sapiens, UniProt Q9UJQ4, residues 1-1053)
# Chain of UniProt Q9UJQ4 (whole entry, looked up): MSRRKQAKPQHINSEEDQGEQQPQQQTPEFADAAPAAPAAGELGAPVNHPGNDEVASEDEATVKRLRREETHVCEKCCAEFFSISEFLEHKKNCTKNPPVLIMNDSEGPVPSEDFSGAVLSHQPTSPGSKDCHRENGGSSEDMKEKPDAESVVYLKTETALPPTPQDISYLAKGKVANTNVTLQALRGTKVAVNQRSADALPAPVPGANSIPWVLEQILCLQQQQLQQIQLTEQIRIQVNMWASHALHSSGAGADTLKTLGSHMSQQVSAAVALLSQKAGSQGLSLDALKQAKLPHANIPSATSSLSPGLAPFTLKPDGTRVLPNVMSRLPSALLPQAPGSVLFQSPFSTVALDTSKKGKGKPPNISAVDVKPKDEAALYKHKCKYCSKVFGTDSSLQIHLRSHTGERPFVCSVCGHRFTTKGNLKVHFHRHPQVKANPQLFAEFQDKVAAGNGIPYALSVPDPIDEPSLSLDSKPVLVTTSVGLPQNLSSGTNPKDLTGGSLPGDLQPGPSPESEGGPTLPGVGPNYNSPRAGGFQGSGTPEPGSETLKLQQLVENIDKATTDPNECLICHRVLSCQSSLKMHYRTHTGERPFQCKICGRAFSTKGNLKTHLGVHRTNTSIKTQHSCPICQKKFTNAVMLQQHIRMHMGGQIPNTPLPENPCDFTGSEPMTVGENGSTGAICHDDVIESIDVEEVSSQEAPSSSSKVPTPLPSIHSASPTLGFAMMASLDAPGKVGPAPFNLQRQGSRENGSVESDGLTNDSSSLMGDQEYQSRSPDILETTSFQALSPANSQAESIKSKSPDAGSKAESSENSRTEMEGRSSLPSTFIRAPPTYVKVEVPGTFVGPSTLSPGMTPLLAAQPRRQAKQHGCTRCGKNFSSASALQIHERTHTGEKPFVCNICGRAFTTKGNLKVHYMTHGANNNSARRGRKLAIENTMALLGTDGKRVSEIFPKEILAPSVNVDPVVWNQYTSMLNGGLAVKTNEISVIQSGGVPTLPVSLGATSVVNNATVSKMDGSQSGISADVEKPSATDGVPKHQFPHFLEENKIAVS
# Setting: 8-mer, flanks averaged, mean of replicates
Oligonucleotide,E-score
CGAGGTAA,-0.0278
CCGCAATC,-0.156
ATGCAACA,0.0952
GCACCACA,-0.133
TGCACCCA,-0.139
ACCTCCGC,-0.293
GCCTATAC,-0.0576
GATGAACA,0.116
ATCCCATC,-0.0092
ACAAAATG,0.257
ACCTAATC,0.144
CAAAGGAC,-0.134
ATAAAGCC,0.0885
GCATCGCC,-0.221
AAGACGGG,-0.293
ATGACCAT,0.101
TCGGTTCA,-0.0783
ATTAAGAC,0.233
CTTACATC,0.16
CACAACTA,0.119
CTGTCCGA,-0.126
GAGCTGAA,-0.0645
ATTGGTGC,-0.0934
CGAATTAC,0.0762
CTAGATAG,0.027

# Set 2 — technique: protein-binding microarray; molecule type: double-stranded DNA, one strand shown; sample: in vitro; concentration: 250 nM; setting: 60-bp whole probe; added: salmon DNA 0.4 mg/ml; reference: random background probes; direction: higher = stronger binding; constant ends, left off below: GCCTAGCAC … GTCTTGATTCGCTTGACGCTGCTG
# Target: Interferon regulatory factor 5, full length, phosphomimetic (IRF5, Homo sapiens, UniProt Q13568-2, residues 1-514, K96S/S451D/S453D/S456D/S462D)
Oligonucleotide,log fluorescence
TTAGGTATCCTACTGCCTTAGTGCTAG,-0.0106 z-score
GACGGTATCGGGTATCGGTACGTGCTA,5.4 z-score
TTAGGACTGTGTCTCGGTTAGTGCTAG,0.0389 z-score
TTAGGACTGGAAACTGGGTTAGTGCTA,-0.175 z-score
TTAGGACAGGGGACTGGGTTAGTGCTA,-0.157 z-score
GACGGTCTCCTTATACTGACGTGCTAG,-0.113 z-score
ACCATTTTGGTTTTCCTTATGTGCTAG,1.36 z-score
TCAGGTTTCGGTCTCGGTTAGTGCTAG,10.2 z-score
GACGGTATCGGTCGCGGGACGTGCTAG,4.81 z-score
TCACTTCTTGAACTCTTACTGTGCTAG,0.55 z-score
TTAGGAGTGGGGACTGGGTTAGTGCTA,-0.347 z-score
CCTCAGCTCCCTTTCTCTCTGTGCTAG,0.231 z-score
TTAGATATTGGGTTTCGATTAGTGCTA,6.99 z-score
CTTCACATATAATTTTGTCATGTGCTA,1.31 z-score
AGGCTCATACATCTGGGTGGGTGCTAG,-0.345 z-score
TTAGCACTGAGTTTCGATTAGTGCTAG,8.89 z-score
GACGAAGTGAGTCTCGAGACGTGCTAG,-0.224 z-score
TACGGTCTCCTTTTCCTGACGTGCTAG,0.304 z-score
TTAGGGCTCCTTATCCTTTAGTGCTAG,-0.282 z-score
GACGGTATCCTACTGCTTACGTGCTAG,-0.23 z-score
TTAGGTTTCGACACGGGGTTAGTGCTA,5.97 z-score
TTAGGTCTCGGACTGGGTCAGTGCTAG,-0.397 z-score
TCATATGTATATATGTGACTGTGCTAG,0.188 z-score
TTAGGTTTCGACTCTCGGTTAGTGCTA,6.86 z-score
GACGGTCTCGGACCGGGGACGTGCTAG,-0.486 z-score

# Set 3 — technique: protein binding microarray; molecule type: double-stranded DNA, one strand shown; sample: in vitro; concentration: not given; reference: not given; direction: higher = stronger binding
# Target: Histone acetyltransferase KAT6A, both winged helices, GST fusion (KAT6A, Homo sapiens, UniProt Q92794, residues 1-181)
# Setting: 8-mer, flanks averaged, mean of 2 arrays, mostly near background
# Residues (chain): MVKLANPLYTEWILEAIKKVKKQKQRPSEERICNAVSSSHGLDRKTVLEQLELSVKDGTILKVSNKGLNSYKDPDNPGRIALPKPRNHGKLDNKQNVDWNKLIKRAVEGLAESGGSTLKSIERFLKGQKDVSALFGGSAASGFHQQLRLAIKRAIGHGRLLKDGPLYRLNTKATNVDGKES
Oligonucleotide,E-score
TCACCTGA,-0.0815
ATAGGCTA,-0.127
GCTAGTCA,-0.095
AGCACGTA,-0.0925
CACAAGAA,-0.0198
ACTAAATA,-0.0448
CGATTCGA,0.0273
CAAGCGAG,0.0296
CTCTCGAA,-0.142
AGTAAGCC,0.00494
AGTTTGTA,-0.156
CGGCCGGA,0.231
CCTATTAA,-0.192
GGAACACA,-0.0766
AAGCAGGG,-0.162
CAGTGAAC,-0.121
AAGTATAA,-0.0985

# Set 4 — technique: RNA Bind-n-Seq; molecule type: RNA; sample: in vitro; concentration: not given; reference: input RNA pool; direction: higher = stronger binding
# Target: RING finger protein unkempt homolog, zinc fingers 1-6, GST-SBP tag (UNK, Homo sapiens, UniProt Q9C0B0, residues 30-357)
# Setting: RNA with constant flanks, human-mouse chimeric sites, ends assumed
# Constant ends, left off below: GGGAGUUCUACAGUCCGACGAUC … CAACAGAGGAUUGAGCAUCA
# Construct (chain): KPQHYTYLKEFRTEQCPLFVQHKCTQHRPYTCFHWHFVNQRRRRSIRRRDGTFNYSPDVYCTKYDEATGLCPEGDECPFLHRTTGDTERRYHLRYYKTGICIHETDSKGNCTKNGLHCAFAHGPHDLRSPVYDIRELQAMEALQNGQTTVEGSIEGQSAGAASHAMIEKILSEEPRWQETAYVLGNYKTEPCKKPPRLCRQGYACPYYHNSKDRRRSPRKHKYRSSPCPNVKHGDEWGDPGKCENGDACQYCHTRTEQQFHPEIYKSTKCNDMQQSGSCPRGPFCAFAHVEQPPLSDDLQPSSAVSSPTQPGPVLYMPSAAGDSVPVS
Oligonucleotide,bound/input enrichment [ratio]
UUGGAAGGACCAGAGCCUAAUCAACUGAAACCAUUAGUUAUACAGGCUAUGCCCACCCUAAUAGAACUAAUGAAAGACCCCAGUGUAGUUGUUCGAGACACAACAGCGUGGACUGUGGGC,0.399
AGAUUCCCUCUCUUAAAACCUCCUCCGAAGUUGGAGUCUCUUACAGAUGCCUCAUCCCCUGUUAGCGUUUUAGUUUGGACCACACAACCUUGGACAAUUCCCGCCAACCAGGCAAUUUGC,1.01
UCUGGUCAUACUCGUGCGUAUGGUGUUUGCUUUGUGGACACUUCACUGGGCAAGUUUUUCAUCGGCCAGUUUUCAGAUGACCGCCACUGUUCCAGAUUUAGGACGCUAGUGGCUCACUAU,0.214
GGGGAGAAACCUUACGAAUGCGUUCAGUGUGGGAAAUCCUACAGUCAGAGCUCAAACCUCUUCAGACAUCAGAGAAGACACAAUGCAGAAAAACUUUUGAAUGUUGUGAAGGUUUAAGAA,0.195
AUGGAACAUUUCGAUGCGUCACUCAGUACCUAUUUCAAGGCCUUCCUAGGCCCUCGAGAUACUAGAGUCAAAGGAUGGUUCCUCCUGGACAAUUACAUCCCUACGUUUGUCUGUUCUGUU,0.0784
GGACAUCUUGUCAGGAUUUAUGUUCCUGUGAAACAAGUGAACACUCUGAUACACUUCAUCUGCUUGUACAUUUAACUGAUAGAGAAAUGUAAAUAUGUUAAUCCAAGCAAUGUGUCACUU,0.197
UAAAUUAGCCAGCACCAUUUCUGUUUCUCCCUGGGCUGCAGACAGCUAGAAGAUUUUAUCUAGCUUAUACAAGGCUGCUGGUGUUCCCUCUUUUUUUCCACGAGGGUGUUUUUGGCUGCA,0.809
CUGUGUGUGCUGAAUAAAUGGCUUGUAAAGAAGUUUUUCCAAGCUGUACCCAUGUACGUUAUUAUAGUUGCUGCAAAAUGUUCUUCCUGAUAUUGAUGUUUGUUUACAACUGAAGGUCUC,0.233
CACACCCUCUUCUGUGGGACCCUCAUCUUGCAGGCCCGGGCCUAUGUGGGACCGCACGUCCUGGCAGUGGUGACCCGCACAGGGUUCUGCACGGCAAAAGGGGGCCUGGUGAGCUCCAUC,0.102
CCCCAAUACCAUUUGCAGGUCUGGAACUGCACUCUCUUUAAAGUUUUACAUGUAUACAUUUUAGGGCUGUAGAUUUAUUUUCCUGGUUUUGUUUUUCAUUGCUGACUUUUGAGCACAGAA,1.75
GCUCCUCCCCGCUCUGCAGCCUGGGGACUUUUGGCAAGGACCAGAAUCUUAUUUUUUUUUAAAACUCUCAGUGUAACUGUAUCCCGUGACAUUUCAUUUUUUUUAAAUAGUGUAUUUUUU,8.07

# Set 5 — technique: RNA Bind-n-Seq; molecule type: RNA; sample: in vitro; concentration: 365 nM; reference: no-protein control; direction: higher = stronger binding
# Target: RNA binding protein fox-1 homolog 2, RRM domain, GST-SBP tag (RBFOX2, Homo sapiens, UniProt O43251-10, residues 100-194)
# Setting: natural RNA segment, single round, ends assumed
# Constant ends, left off below: GGGAGUUCUACAGUCCGACGAUC … UGGAAUUCUCGGGUGCCAA
# Target sequence (chain): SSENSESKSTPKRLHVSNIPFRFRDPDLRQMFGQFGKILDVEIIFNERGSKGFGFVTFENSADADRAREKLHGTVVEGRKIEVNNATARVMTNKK
Oligonucleotide,RBNS enrichment (R)
UAGCCAGGAAAAUAGGAAUCCCUGGUGGGUUUCUGAUUCCUGUGCUGAGAAGGAGAGUCACAGGUCCUGGAGAUAGAAAUGGAGGUGGCCUGCUGAUAAGAUACCUGCUG,0.697
GUCCUUAGACCAUCUUCCUACAUUACCUGGAAGGGAGCUGCCAUCUGUCCCUCUGCAGAGGGAUACCUUCCAAUAGUAAAUUAUCUGGUUCCUCACUGAAACAAGUUAUU,0.439
AGGGCCUUCUUAAGAUACAAAUGGUGGAGGAUUGCUGCCAGAGAAGUCUGGUCAGAGCCACAGGGUCUGCCUCCAGCCAAACGGGAGCUUUUGGUGAGAAGGUGUUGGAC,0.817
AAGAUAAACCAUUUGGAUAUAUUUGAUUUUGUCAUAACAUUUGUAAAGUAUAUGUUUCUCAUGAGACUGAGGGUUUUAUUUUUAAAAUCCCCUUACAUUUCUAGCACACC,0.42
GGUCAGUUAAAUCUGUGAUAAUGGUUGGAAGUGGGUGGGGUUAUGAAAUUGUAGAUGUUUUUAGAAAAACUUGUGAAUGAAAAUGAAUCCAAGUGUUUCAUGUGAAGAUG,4.02
GUGAAUAAUAAGUAAAUAGUCUGAUGACCCUCUUAAUAGCAUUGCAAUUGUAUUGAAUCACAUAAUGAUUCAUAAGUAACUAGGGAACCAACUGAUUUUGCUAAGCAGUC,1.41
UCUCCUUCUGGAGAUCAACCCACAUUAGAGUGUCUAAGGACUCCUGAGAAUUCCUGUUACAGUAAACAAAACUAACGUAAUCUACCAUUUCCUACACUAUUUGAGCAUGG,0.45
UCUUCAUUUUUUUGGUAUUUGCAUAAAGUGAACAAUAUCACAAGAAUUAAAUCACUGUGGACCCAUUACCUACCUUUCCUUAUUGUCCGUUCCAUGUUGUGCCAUUUCUG,1.3
UCCUGAGAUCCAUCCCCUAGACUGACUGACCGACAGACACACAAACACCAGACUGAAGCACAUGUAAUAUAGACUGUGUAUGUUUACAAUGUUGUGUAUAAAUGGGACAC,0.547
UUUCUUUCUGUUCAGGAACCAUCAGUCCCCUUGUAAUAAAGGUGGUAGAUUUCAUUGAGGUUUUAGAUUGAAACUUUGAAUAAAUCAAAAAUACUCAUUCUUAUUUACUG,0.352
UUGGGGAAGGGGACAGAUUAUGAAAUUUCAUGGAUGAAUUUUCCAGACCUAUAUCUGGAGUGAGAGGCCCCCACCCUUGGGCAGAGUCCUGCCUUCUUCCUUGAGGGGCA,0.502
CUGGGACCCCCGCCCAGCUUGGGGGGCUGCUCGUACGAGUGUAGACACUGGGCCCAUUGGACGUGCUGUUAACUACUAUCUUCAUUUCCCACUUCCCCUCUCUGAUUGGG,0.538

# Some of these lines once more (set 5):
Oligonucleotide,RBNS enrichment (R)
GUGAAUAAUAAGUAAAUAGUCUGAUGACCCUCUUAAUAGCAUUGCAAUUGUAUUGAAUCACAUAAUGAUUCAUAAGUAACUAGGGAACCAACUGAUUUUGCUAAGCAGUC,1.41
CUGGGACCCCCGCCCAGCUUGGGGGGCUGCUCGUACGAGUGUAGACACUGGGCCCAUUGGACGUGCUGUUAACUACUAUCUUCAUUUCCCACUUCCCCUCUCUGAUUGGG,0.538
UAGCCAGGAAAAUAGGAAUCCCUGGUGGGUUUCUGAUUCCUGUGCUGAGAAGGAGAGUCACAGGUCCUGGAGAUAGAAAUGGAGGUGGCCUGCUGAUAAGAUACCUGCUG,0.697
UUUCUUUCUGUUCAGGAACCAUCAGUCCCCUUGUAAUAAAGGUGGUAGAUUUCAUUGAGGUUUUAGAUUGAAACUUUGAAUAAAUCAAAAAUACUCAUUCUUAUUUACUG,0.352
UCUUCAUUUUUUUGGUAUUUGCAUAAAGUGAACAAUAUCACAAGAAUUAAAUCACUGUGGACCCAUUACCUACCUUUCCUUAUUGUCCGUUCCAUGUUGUGCCAUUUCUG,1.3
AAGAUAAACCAUUUGGAUAUAUUUGAUUUUGUCAUAACAUUUGUAAAGUAUAUGUUUCUCAUGAGACUGAGGGUUUUAUUUUUAAAAUCCCCUUACAUUUCUAGCACACC,0.42
AGGGCCUUCUUAAGAUACAAAUGGUGGAGGAUUGCUGCCAGAGAAGUCUGGUCAGAGCCACAGGGUCUGCCUCCAGCCAAACGGGAGCUUUUGGUGAGAAGGUGUUGGAC,0.817
GUCCUUAGACCAUCUUCCUACAUUACCUGGAAGGGAGCUGCCAUCUGUCCCUCUGCAGAGGGAUACCUUCCAAUAGUAAAUUAUCUGGUUCCUCACUGAAACAAGUUAUU,0.439
GGUCAGUUAAAUCUGUGAUAAUGGUUGGAAGUGGGUGGGGUUAUGAAAUUGUAGAUGUUUUUAGAAAAACUUGUGAAUGAAAAUGAAUCCAAGUGUUUCAUGUGAAGAUG,4.02
UCUCCUUCUGGAGAUCAACCCACAUUAGAGUGUCUAAGGACUCCUGAGAAUUCCUGUUACAGUAAACAAAACUAACGUAAUCUACCAUUUCCUACACUAUUUGAGCAUGG,0.45
